{"data": "Measured values pooled from the literature", "note": "A part holds a random share of what one study measured. Substitutions count along the parent as printed."}
{"data": "Series 1", "target": "Histone acetyltransferase KAT6A, both winged helices, GST fusion (KAT6A, Homo sapiens, UniProt Q92794, residues 1-181)", "technique": "protein binding microarray", "molecule type": "double-stranded DNA, one strand shown", "matrix": "in vitro", "tested at": "not given", "setting": "8-mer, flanks averaged, mean of 2 arrays, mostly near background", "baseline": "not given", "reading": "higher = stronger binding", "Residues (chain)": "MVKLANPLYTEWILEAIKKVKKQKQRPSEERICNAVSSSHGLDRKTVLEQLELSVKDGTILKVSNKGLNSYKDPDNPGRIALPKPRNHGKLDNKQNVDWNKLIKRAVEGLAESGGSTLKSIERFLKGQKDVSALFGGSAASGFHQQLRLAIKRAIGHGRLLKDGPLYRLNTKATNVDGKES"}
{"Oligonucleotide": "CCACATCC", "E-score": -0.143}
{"Oligonucleotide": "CTAGTTGC", "E-score": -0.113}
{"Oligonucleotide": "ACGGTATC", "E-score": 0.173}
{"Oligonucleotide": "ATTTAAAG", "E-score": 0.00989}
{"Oligonucleotide": "CACTTACC", "E-score": 0.0166}
{"Oligonucleotide": "ACGATCTA", "E-score": -0.208}
{"Oligonucleotide": "CCAGAGAA", "E-score": -0.047}
{"Oligonucleotide": "ATCTGTTA", "E-score": -0.0785}
{"Oligonucleotide": "ACGTAGCT", "E-score": -0.0623}
{"data": "Series 2", "target": "CCND3, cyclin fold, Cln2 fusion (human)", "technique": "yeast growth competition, sequencing", "matrix": "yeast", "setting": "weak parent motif", "baseline": "not given", "reading": "higher = stronger binding", "starting sequence": "PKN2 docking peptide (human); VSAVQKLDFSDTM; partner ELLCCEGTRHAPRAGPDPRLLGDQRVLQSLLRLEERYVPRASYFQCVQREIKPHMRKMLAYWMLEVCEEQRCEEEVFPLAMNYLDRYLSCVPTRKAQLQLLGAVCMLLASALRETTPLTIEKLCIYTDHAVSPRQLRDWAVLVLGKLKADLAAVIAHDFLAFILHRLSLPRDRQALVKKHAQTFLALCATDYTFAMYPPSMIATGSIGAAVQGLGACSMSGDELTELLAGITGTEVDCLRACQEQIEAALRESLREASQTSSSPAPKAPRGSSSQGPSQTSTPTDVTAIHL"}
{"Substitution": "K6C", "normalised enrichment score": 0.151}
{"Substitution": "M13N", "normalised enrichment score": 0.122}
{"Substitution": "V4E", "normalised enrichment score": 0.138}
{"Substitution": "V4I", "normalised enrichment score": 0.157}
{"Substitution": "A3D", "normalised enrichment score": 0.00507}
{"Substitution": "L7S", "normalised enrichment score": 0.0747}
{"data": "Series 3", "target": "TAR DNA-binding protein 43, full length, His tag (TARDBP, Homo sapiens, UniProt Q13148, residues 1-414)", "technique": "RNA Bind-n-Seq", "molecule type": "RNA", "matrix": "in vitro", "tested at": "20 nM", "setting": "6-mer, flanks averaged, single round", "with": "150 mM LiCl", "baseline": "input library", "reading": "higher = stronger binding"}
{"Oligonucleotide": "UCGCGG", "6-mer enrichment (R)": 0.983}
{"Oligonucleotide": "UACGGU", "6-mer enrichment (R)": 0.921}
{"Oligonucleotide": "GGACGU", "6-mer enrichment (R)": 1.07}
{"Oligonucleotide": "UCGGAG", "6-mer enrichment (R)": 1}
{"Oligonucleotide": "CAUGCC", "6-mer enrichment (R)": 0.933}
{"Oligonucleotide": "GACCGA", "6-mer enrichment (R)": 0.854}
{"Oligonucleotide": "AUCCUA", "6-mer enrichment (R)": 0.805}
{"Oligonucleotide": "CACUUU", "6-mer enrichment (R)": 0.988}
{"Oligonucleotide": "UUCCUA", "6-mer enrichment (R)": 0.88}
{"data": "Mixed results"}
{"Substance": "PhoQ, residues 284 288 289 292 302 303 TAVSDG", "target": "PhoP, residues 12 14 15 18 19 LYHSL (Escherichia coli, UniProt P23836)", "assay": "Sort-seq, refers to: YFP reporter", "system": "E. coli", "setting": "PhoQ-PhoP variant library, with: 10 µM Mg2+", "scale": "baseline: high Mg2+ state, higher = stronger signaling", "measurement": "fold induction", "result": 1.03}
{"note": "Some of these lines once more (series 3):"}
{"Oligonucleotide": "GGACGU", "6-mer enrichment (R)": 1.07}
{"Oligonucleotide": "UCGCGG", "6-mer enrichment (R)": 0.983}
{"Oligonucleotide": "GACCGA", "6-mer enrichment (R)": 0.854}
